{"data": "Measurements from different studies", "note": "Lines come from different studies, so protocols differ."}
{"Compound": "COc1ccc([C@@H](O)c2cc(-c3ncnc4cc(N5CCOCC5)ccc34)c(F)cc2Cl)nn1", "test system": "locally advanced rectal cancer", "setting": "oral, 50 mg, together with: capecitabine and radiotherapy", "endpoint": "incidence of proctalgia TEAE", "result": "0%"}
{"Compound": "O=C(Nc1nc2cccc(-c3ccc(CN4CCS(=O)(=O)CC4)cc3)n2n1)C1CC1", "test system": "rheumatoid arthritis patients", "setting": "oral, 300 mg once daily, 4 weeks, TEAE regardless of relatedness", "endpoint": "incidence of gastritis", "result": "0%"}
{"Compound": "Cc1cc(-c2nnc(N)nc2-c2ccc(F)cc2)cc(Cl)n1", "assay": "item: myositis, all grades", "test system": "post-IO NSCLC patients", "setting": "oral, 100 mg once daily", "endpoint": "incidence of AE, immune-mediated, treatment-related", "result": "0%"}
{"Compound": "CCO[C@H]1CCN(Cc2c(OC)cc(C)c3[nH]ccc23)[C@H](c2ccc(C(=O)O)cc2)C1", "test system": "PNH patients, active haemolysis", "setting": "oral, 50 mg, treatment", "endpoint": "incidence reverse T3 increase", "result": "0%"}
{"Compound": "NCCONC(=O)[C@@H]1CC[C@@H]2CN1C(=O)N2OS(=O)(=O)O", "test system": "healthy Chinese male subjects", "setting": "intravenous, 2 g", "endpoint": "incidence of any adverse event", "result": "62.5%"}
{"Compound": "NC1(C(=O)N[C@@H](CCO)c2ccc(Cl)cc2)CCN(c2nc[nH]c3nccc2-3)CC1", "test system": "metastatic CRPC patients", "setting": "dose not given, grade 3 to 4, treatment-related, all doses, together with: enzalutamide 160 mg daily", "endpoint": "incidence of Neutropenia", "result": "6.7%"}
{"Compound": "C[C@@H](c1ccc2nccn2c1)n1nnc2ncc(-c3cnn(C)c3)nc21", "assay": "item: decreased appetite", "test system": "EGFR-mutant MET-altered NSCLC patients", "setting": "oral, dose not given, AE grade ≥3, all", "endpoint": "incidence of treatment-related AEs", "result": "1%"}
{"Compound": "C[C@@H](N)C1CCN(S(=O)(=O)c2cccc3cnccc23)CC1", "test system": "healthy volunteers", "setting": "150 mg, fed", "endpoint": "incidence of mental impairment TEAE", "result": "0%"}
{"Compound": "C=CC(=O)Nc1cc(Nc2nccc(-c3cn(C)c4ccccc34)n2)c(OC)cc1N(C)CCN(C)C", "assay": "item: AST increased", "test system": "EGFR-mutant MET-altered NSCLC patients", "setting": "oral, dose not given, AE grade ≥3, all", "endpoint": "incidence of treatment-related AEs", "result": "6%"}
{"Compound": "N#CCNC(=O)c1ccc(-c2ccnc(Nc3ccc(N4CCOCC4)cc3)n2)cc1", "test system": "patients with myelofibrosis", "setting": "oral, 200 mg, 24 weeks, phase III trials", "endpoint": "incidence of diarrhoea", "result": "22.8%"}
{"note": "Some of these lines once more:"}
{"Compound": "NC1(C(=O)N[C@@H](CCO)c2ccc(Cl)cc2)CCN(c2nc[nH]c3nccc2-3)CC1", "test system": "metastatic CRPC patients", "setting": "dose not given, grade 3 to 4, treatment-related, all doses, together with: enzalutamide 160 mg daily", "endpoint": "incidence of Neutropenia", "result": "6.7%"}
